{"data": "Measurements gathered from unrelated publications", "UCHL1": "Ubiquitin carboxyl-terminal hydrolase isozyme L1 (UCHL1, Homo sapiens, UniProt P09936)", "note": "Protocols differ between the studies behind these lines. ± gives the spread as reported.", "UniProt P09936, sequence (whole entry, looked up)": "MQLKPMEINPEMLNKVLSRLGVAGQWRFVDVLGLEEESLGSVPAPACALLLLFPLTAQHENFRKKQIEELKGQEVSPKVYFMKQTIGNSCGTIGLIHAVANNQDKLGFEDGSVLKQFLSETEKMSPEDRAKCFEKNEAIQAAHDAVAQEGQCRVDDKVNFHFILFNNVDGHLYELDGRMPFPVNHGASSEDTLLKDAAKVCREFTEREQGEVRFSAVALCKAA"}
{"Structure (SMILES)": "O=C(CCl)N(Cc1ccc(Cl)c([N+](=O)[O-])c1)c1ccccc1", "target or system": "UCHL1", "test": "covalent, intact protein LC-MS", "conditions": "12.5 µM", "endpoint": "labelling", "result": "21.2%"}
{"Structure (SMILES)": "COCCOc1nc(N)c2[nH]c(=O)n(Cc3ccc(C(=O)O)cc3)c2n1", "system": "water", "endpoint": "maximum solubility", "result": "~100 µM"}
{"Structure (SMILES)": "CC(C)c1nc(CN(C)C(=O)N[C@H](C(=O)N[C@@H](Cc2ccccc2)C[C@H](O)[C@H](Cc2ccccc2)NC(=O)OCc2cncs2)C(C)C)cs1", "system": "Macaca nemestrina, plasma", "conditions": "intravenous, dose not given, time-averaged", "endpoint": "maximum DcNP-dissociated fraction", "result": "13%"}
{"Structure (SMILES)": "O=C(O)c1cc(Br)ccc1F", "system": "sheep erythrocytes", "conditions": "1 h, pH 7.5", "endpoint": "maximum haemolysis", "result": "2.5%"}
{"Structure (SMILES)": "Cc1c2oc3c(C)ccc(C(=O)N[C@@H]4C(=O)N[C@H](C(C)C)C(=O)N5CCC[C@H]5C(=O)N(C)CC(=O)N(C)[C@@H](C(C)C)C(=O)O[C@@H]4C)c3nc-2c(C(=O)N[C@@H]2C(=O)N[C@H](C(C)C)C(=O)N3CCC[C@H]3C(=O)N(C)CC(=O)N(C)[C@@H](C(C)C)C(=O)O[C@@H]2C)c(N)c1=O", "system": "children with cancer, plasma", "conditions": "dose not given, 5 min", "endpoint": "maximum plasma concentration", "result": "186 µg/L"}
{"Structure (SMILES)": "CC[C@H](C)[C@@H]1NC(=O)[C@H](CCCNC(=N)N)NC(=O)[C@H](CC(=O)O)NC(=O)[C@H](CC(C)C)NC(=O)[C@H](CCCCN)NC(=O)[C@H](CC(C)C)NC(=O)CNC(=O)[C@H](Cc2ccccc2)NC(=O)[C@@H](NC(=O)CNC(=O)[C@H](CCCCN)NC(=O)[C@H](CO)NC(=O)[C@H](CC(C)C)NC(=O)CNC(=O)[C@H](CCCCN)NC(=O)[C@H](CCCCN)NC(=O)[C@H](CC(N)=O)NC(=O)[C@H](C)NC(=O)CNC(=O)[C@H](CCCCN)NC(=O)[C@H](Cc2ccc(O)cc2)NC(=O)[C@H](CCCCN)NC(=O)[C@H](CCCNC(=N)N)NC(=O)[C@H](C)NC(=O)[C@H](CC(N)=O)NC(=O)[C@@H]2CCCN2C(=O)[C@H](Cc2c[nH]cn2)NC(=O)[C@H](CCC(=O)O)NC(=O)[C@H](CCC(N)=O)NC(=O)CNC(=O)[C@@H]2CCCN2)CSSC[C@@H](C(=O)O)NC(=O)CNC(=O)[C@H](CC(C)C)NC(=O)CNC(=O)[C@H](CO)NC(=O)[C@H](CCSC)NC(=O)[C@H](CO)NC(=O)CNC1=O", "system": "human", "conditions": "concentration not given", "endpoint": "maximum SBP decrease", "result": "-7 mmHg"}
{"Structure (SMILES)": "CC(C)C(=O)O[C@H]1[C@H](C)OC(=O)[C@@H]1Cc1ccccc1", "system": "sterile natural water, irradiated", "conditions": "photolysis product", "endpoint": "maximum share of applied radioactivity", "result": "61.6 % AR"}
{"Structure (SMILES)": "C=CC(=O)NC1CCN(c2ncc3ncnc(Nc4ccc(Oc5ccc6c(c5)ncn6C)c(C)c4)c3n2)CC1", "system": "tiny-TIM gastrointestinal model", "conditions": "30 mg, fed state, high-fat meal", "endpoint": "maximum bioaccessibility", "result": "51.3 ± 0.3 % recovery"}
{"Structure (SMILES)": "Cc1cccc(C)c1OCC(=O)N[C@@H](Cc1ccccc1)[C@@H](O)C[C@H](Cc1ccccc1)NC(=O)[C@H](C(C)C)N1CCCNC1=O", "system": "Macaca nemestrina, plasma", "conditions": "intravenous, dose not given, time-averaged", "endpoint": "maximum DcNP-dissociated fraction", "result": "2.1%"}
{"Structure (SMILES)": "O=C(CCCN1CCC(O)(c2ccc(Br)cc2)CC1)c1ccc(F)cc1", "system": "sheep erythrocytes", "conditions": "1 h, pH 7.5", "endpoint": "maximum haemolysis", "result": "4.45%"}
{"Structure (SMILES)": "COc1ccnc(C(=O)NCCO)c1OCOC(=O)C(C)C", "system": "sterile natural water, irradiated", "conditions": "photolysis product", "endpoint": "maximum share of applied radioactivity", "result": "12.5 % AR"}
{"Structure (SMILES)": "COC(=O)/C(C#N)=C1\\Nc2ccccc2O1", "system": "sheep erythrocytes", "conditions": "1 h, pH 7.5", "endpoint": "maximum haemolysis", "result": "3.17%"}
{"Structure (SMILES)": "COc1cc(C=C(C#N)C(=O)Nc2ccc(F)cc2)cc(Cl)c1O", "target or system": "UCHL1", "test": "covalent, intact protein LC-MS", "conditions": "12.5 µM", "endpoint": "labelling", "result": "12.4%"}
{"Structure (SMILES)": "CC(C)/N=C(\\N)c1ccc(NC(=O)c2ccc(C(=O)Nc3ccc(/C(N)=N/C(C)C)cc3)cc2)cc1", "system": "sheep erythrocytes", "conditions": "1 h, pH 7.5", "endpoint": "maximum haemolysis", "result": "1.99%"}
{"Structure (SMILES)": "COc1ccnc(C(=O)N[C@@H](CO)C(=O)O)c1OCOC(=O)C(C)C", "system": "sterile natural water, irradiated", "conditions": "photolysis product", "endpoint": "maximum share of applied radioactivity", "result": "77 % AR"}
{"Structure (SMILES)": "COC1/C=C/OC2(C)Oc3c(C)c(O)c4c(O)c(c5c(nc6cc(C)ccn65)c4c3C2=O)NC(=O)/C(C)=C\\C=C\\C(C)C(O)C(C)C(O)C(C)C(OC(C)=O)C1C (centres unmarked)", "system": "sheep erythrocytes", "conditions": "1 h, pH 7.5", "endpoint": "maximum haemolysis", "result": "8.8%"}
{"Structure (SMILES)": "Cc1cc(C#N)cc(C)c1Oc1nc(Nc2ccc(C#N)cc2)nc(N)c1Br", "test": "solvent-shift UV", "system": "FaSSIF with 0.05% HPMCAS-M", "endpoint": "maximum supersaturated concentration", "result": "95 µg/mL"}
{"note": "A few entries again:"}
{"Structure (SMILES)": "O=C(CCCN1CCC(O)(c2ccc(Br)cc2)CC1)c1ccc(F)cc1", "system": "sheep erythrocytes", "conditions": "1 h, pH 7.5", "endpoint": "maximum haemolysis", "result": "4.45%"}
{"Structure (SMILES)": "COc1ccnc(C(=O)NCCO)c1OCOC(=O)C(C)C", "system": "sterile natural water, irradiated", "conditions": "photolysis product", "endpoint": "maximum share of applied radioactivity", "result": "12.5 % AR"}
{"Structure (SMILES)": "COC(=O)/C(C#N)=C1\\Nc2ccccc2O1", "system": "sheep erythrocytes", "conditions": "1 h, pH 7.5", "endpoint": "maximum haemolysis", "result": "3.17%"}
